Experimental data collected from several papers.
Each line is one published result; not all experiments were run side by side.

Structure (SMILES)	cell line	test	test system	setting	how to read	endpoint	value
CC(C)C[C@H](NC(=O)[C@H](C)NC(=O)[C@H](Cc1c[nH]cn1)NC(=O)[C@H](C)NC(=O)[C@H](CC(C)C)NC(=O)[C@H](Cc1c[nH]cn1)NC(=O)[C@H](CC(C)C)NC(=O)[C@H](Cc1c[nH]c2ccccc12)NC(=O)[C@H](CC(C)C)NC(=O)[C@H](CC(C)C)NC(=O)[C@H](C)NC(=O)[C@H](CC(C)C)NC(=O)[C@H](CC(C)C)NC(=O)[C@H](Cc1c[nH]cn1)NC(=O)[C@H](CC(C)C)NC(=O)[C@H](C)NC(=O)[C@H](Cc1c[nH]cn1)NC(=O)[C@H](C)NC(=O)[C@H](CC(C)C)NC(=O)[C@H](CCCCN)NC(=O)[C@@H](N)CCCCN)C(=O)N[C@@H](CCCCN)C(=O)N[C@@H](CCCCN)C(=O)N[C@@H](C)C(=O)N[C@@H](CS)C(N)=O	human red blood cells	–	–	pH 7.4	baseline: Triton X-100	EC50	> 100 µM
Nc1ncnc2c1ncn2[C@@H]1O[C@@H]2COP(=O)(O)O[C@H]3[C@@H](O)[C@H](n4cnc5c(=O)[nH]cnc54)O[C@@H]3COP(=O)(O)O[C@H]2[C@H]1O	HFF-1	RNA sequencing, measured: Collagen formation	–	downregulated pathway	baseline: Zika virus alone	pathway fold enrichment	10.4
Nc1ncc(-c2nc(N3CCOCC3)nc(N3CCOCC3)n2)c(C(F)F)n1	T24	–	–	72 h	–	GI50	0.557 µM
CN1CCN(S(=O)(=O)c2cc([N+](=O)[O-])ccc2N(CCOS(C)(=O)=O)CCOS(C)(=O)=O)CC1	sample DC T-ALL PDX cells	cell viability	ex vivo	48 h, with: AKR1C3 inhibitor	baseline: with inhibitor over alone	IC50 fold change	196
O=C1C(Cl)=C(Cl)C(=O)C(Cl)=C1Cl	human iPSC-derived cardiomyocytes	MyBP-C/MYH ratio, plate-normalised SD score	–	concentration not given, primary screen	direction not given	activity score	11.7
COc1ccc2c(c1)[nH]c1c(C)nccc12	DU-145	bisulfite pyrosequencing, measured: RASSF1A promoter CpG site 27	–	10 µM, 16 h	–	DNA methylation	80.5%
COc1cc(CCC[P+](c2ccccc2)(c2ccccc2)c2ccccc2)c(OC)c2c1OCO2.[I-]	U-251	SRB	–	–	–	LC50	> -4 log M
CN1CCN(C2(CNC3CCN(c4cccc(-c5cc6cc(F)ccc6[nH]5)c4)CC3)CCC2)CC1	U-251	–	–	–	–	TGI	3.33 µM
Cn1cncc1C1=CN(c2ncnc3[nH]cnc23)CCS1	UO-31	–	–	renal cancer	–	CC50	> 200 µM
COc1c(CCC[P+](c2ccccc2)(c2ccccc2)c2ccccc2)cc2c(c1OC)OCO2.[I-]	LOX IMVI	SRB	–	–	–	Log10TGI	-4.98 log M
COc1c(C)c2c(c(O)c1C/C=C(\C)CCC(=O)O)C(=O)OC2	Granta-519	cell proliferation	blood cancer	–	–	IC50	0.204 µM
CC(C)N1CCC(NC2CCN(c3cccc(-c4cc5cc(F)ccc5[nH]4)c3)CC2)CC1	UO-31	–	–	–	–	CC50	6.18 µM
c1ccc2[nH]ccc2c1	HCT-8	RNA-seq, measured: IFITM10	–	concentration not given	–	mRNA level, LS mean	2.16 counts per million
